Measured values pooled from the literature.
Each numbered part is a random draw from the data of one study; scales do not carry over between parts. Substitutions count along the parent as printed.

Study 1
Target: Ras GTPase-activating protein-binding protein 1, full length (G3BP1, Homo sapiens, UniProt Q13283)
Sequence of UniProt Q13283 (whole entry, looked up): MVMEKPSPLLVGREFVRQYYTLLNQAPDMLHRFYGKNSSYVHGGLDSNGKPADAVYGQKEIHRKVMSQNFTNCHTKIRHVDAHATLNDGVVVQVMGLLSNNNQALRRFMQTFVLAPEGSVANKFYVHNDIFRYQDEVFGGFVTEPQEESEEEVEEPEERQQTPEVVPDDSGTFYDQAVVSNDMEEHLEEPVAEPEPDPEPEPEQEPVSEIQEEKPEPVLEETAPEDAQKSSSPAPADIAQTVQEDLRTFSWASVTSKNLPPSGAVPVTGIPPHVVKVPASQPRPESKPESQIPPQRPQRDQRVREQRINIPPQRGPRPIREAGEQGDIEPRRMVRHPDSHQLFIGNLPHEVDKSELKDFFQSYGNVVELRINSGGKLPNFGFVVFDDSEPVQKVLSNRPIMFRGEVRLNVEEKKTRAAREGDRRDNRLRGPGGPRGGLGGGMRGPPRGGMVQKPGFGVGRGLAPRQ
Method: RNA Bind-n-Seq
Molecule type: RNA
Matrix: in vitro
Tested at: 200 nM
Setting: whole 134-nt RNA, ends assumed
Together with: 150 mM KCl
Relative to: input library
Reading: higher = stronger binding
Constant ends, left off below: GGGAGUUCUACAGUCCGACGAUC … UGGAAUUCUCGGGUGUCAAGG
| Sequence | log2 enrichment |
| --- | --- |
| CAAGUCCUGUGCUACACAUCGUAUGUACCGAAUCGGGUGGGUUUGGGUUUUUGGGAAAGUAUUAUGUUACGCCGUUCGGAUCUGCACUUC | 0.338 |
| UUCCUCAAGUCCUGUGCUACACAUCGUAUGUACCGAAUCGGUGGGUGGUGGAAAGUAUUAUGUUACGCCGUUCGGAUCUGCACUUCCAGC | -0.193 |
| GUCCUGUGCUACACAUCGUAUGUACCGAAUCGGGGAAAGGGGUUUUUGGGGAAAGGGGAAAGUAUUAUGUUACGCCGUUCGGAUCUGCAC | 0.644 |
| UGGCCCUGGUGGCAUGCGGGGAGGAAGAGGUGGCCUCAUGGAUCGUGGUGGUCGCGGUGGAAUGUUCAGAGGUGGCCGUGGUGGAGACAG | 0.0883 |
| AAGUCCUGUGCUACACAUCGUAUGUACCGAAUCGGGUUUGGGAAAAAGGGAAAGGGAAAGUAUUAUGUUACGCCGUUCGGAUCUGCACUU | 0.38 |

Study 2
Target: CCNB2, cyclin fold, Cln2 fusion (human)
Method: yeast growth competition, sequencing
Matrix: yeast
Setting: strong parent motif
Relative to: not given
Reading: higher = stronger binding
Parent: PKMYT1 docking peptide (human); SFEPRNLLSLFED; partner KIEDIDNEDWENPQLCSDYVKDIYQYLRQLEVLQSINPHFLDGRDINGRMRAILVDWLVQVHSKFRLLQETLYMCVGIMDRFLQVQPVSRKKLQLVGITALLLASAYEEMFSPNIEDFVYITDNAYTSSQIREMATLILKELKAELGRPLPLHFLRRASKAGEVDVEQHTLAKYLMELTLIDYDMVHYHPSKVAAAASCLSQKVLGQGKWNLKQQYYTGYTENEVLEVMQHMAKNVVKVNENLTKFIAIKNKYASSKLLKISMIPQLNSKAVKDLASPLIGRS
| Substitution | normalised enrichment score |
| --- | --- |
| SFEPRNRLSLFED [L7R] | -0.79 |
| SFEPRNLLWLFED [S9W] | 0.825 |
| SFEPRNQLSLFED [L7Q] | -0.629 |
| SFEPRNELSLFED [L7E] | -1.01 |

Study 3
Target: Histone acetyltransferase KAT6A, both winged helices, GST fusion (KAT6A, Homo sapiens, UniProt Q92794, residues 1-181)
Method: protein binding microarray
Molecule type: double-stranded DNA, one strand shown
Matrix: in vitro
Tested at: not given
Setting: 8-mer, flanks averaged, mean of 2 arrays, mostly near background
Relative to: not given
Reading: higher = stronger binding
Target sequence (chain): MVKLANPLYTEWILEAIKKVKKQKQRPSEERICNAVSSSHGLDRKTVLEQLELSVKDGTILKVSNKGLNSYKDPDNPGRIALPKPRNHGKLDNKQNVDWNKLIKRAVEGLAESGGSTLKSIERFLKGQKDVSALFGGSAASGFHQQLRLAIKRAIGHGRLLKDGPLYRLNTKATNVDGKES
| Sequence | E-score |
| --- | --- |
| GCCGCTCA | 0.308 |
| CAGGCCGA | -0.00528 |
| CTCTCGGA | -0.0802 |
| GAGCGTCC | 0.011 |
| ACTCTGAT | 0.071 |
| ACAAAACC | -0.0541 |
| TCCGAAGA | 0.0196 |

Other studies, line by line
| Molecule | target | assay | system | conditions | how to read | measurement | value |
| --- | --- | --- | --- | --- | --- | --- | --- |
| PhoQ, residues 284 288 289 292 302 303 STVVAA | PhoP, residues 12 14 15 18 19 SQCLL (Escherichia coli, UniProt P23836) | Sort-seq, item: YFP reporter | E. coli | PhoQ-PhoP variant library, together with: 10 µM Mg2+ | relative to: high Mg2+ state, higher = stronger signaling | fold induction | 8.86 |

For quick reference, copied from above (study 1):
| Sequence | log2 enrichment |
| --- | --- |
| UUCCUCAAGUCCUGUGCUACACAUCGUAUGUACCGAAUCGGUGGGUGGUGGAAAGUAUUAUGUUACGCCGUUCGGAUCUGCACUUCCAGC | -0.193 |
